Results of several laboratories.
Every numbered part comes from another study and shows a few of its results, in no order.
UniProt Q9Y5S2, sequence (whole entry, looked up): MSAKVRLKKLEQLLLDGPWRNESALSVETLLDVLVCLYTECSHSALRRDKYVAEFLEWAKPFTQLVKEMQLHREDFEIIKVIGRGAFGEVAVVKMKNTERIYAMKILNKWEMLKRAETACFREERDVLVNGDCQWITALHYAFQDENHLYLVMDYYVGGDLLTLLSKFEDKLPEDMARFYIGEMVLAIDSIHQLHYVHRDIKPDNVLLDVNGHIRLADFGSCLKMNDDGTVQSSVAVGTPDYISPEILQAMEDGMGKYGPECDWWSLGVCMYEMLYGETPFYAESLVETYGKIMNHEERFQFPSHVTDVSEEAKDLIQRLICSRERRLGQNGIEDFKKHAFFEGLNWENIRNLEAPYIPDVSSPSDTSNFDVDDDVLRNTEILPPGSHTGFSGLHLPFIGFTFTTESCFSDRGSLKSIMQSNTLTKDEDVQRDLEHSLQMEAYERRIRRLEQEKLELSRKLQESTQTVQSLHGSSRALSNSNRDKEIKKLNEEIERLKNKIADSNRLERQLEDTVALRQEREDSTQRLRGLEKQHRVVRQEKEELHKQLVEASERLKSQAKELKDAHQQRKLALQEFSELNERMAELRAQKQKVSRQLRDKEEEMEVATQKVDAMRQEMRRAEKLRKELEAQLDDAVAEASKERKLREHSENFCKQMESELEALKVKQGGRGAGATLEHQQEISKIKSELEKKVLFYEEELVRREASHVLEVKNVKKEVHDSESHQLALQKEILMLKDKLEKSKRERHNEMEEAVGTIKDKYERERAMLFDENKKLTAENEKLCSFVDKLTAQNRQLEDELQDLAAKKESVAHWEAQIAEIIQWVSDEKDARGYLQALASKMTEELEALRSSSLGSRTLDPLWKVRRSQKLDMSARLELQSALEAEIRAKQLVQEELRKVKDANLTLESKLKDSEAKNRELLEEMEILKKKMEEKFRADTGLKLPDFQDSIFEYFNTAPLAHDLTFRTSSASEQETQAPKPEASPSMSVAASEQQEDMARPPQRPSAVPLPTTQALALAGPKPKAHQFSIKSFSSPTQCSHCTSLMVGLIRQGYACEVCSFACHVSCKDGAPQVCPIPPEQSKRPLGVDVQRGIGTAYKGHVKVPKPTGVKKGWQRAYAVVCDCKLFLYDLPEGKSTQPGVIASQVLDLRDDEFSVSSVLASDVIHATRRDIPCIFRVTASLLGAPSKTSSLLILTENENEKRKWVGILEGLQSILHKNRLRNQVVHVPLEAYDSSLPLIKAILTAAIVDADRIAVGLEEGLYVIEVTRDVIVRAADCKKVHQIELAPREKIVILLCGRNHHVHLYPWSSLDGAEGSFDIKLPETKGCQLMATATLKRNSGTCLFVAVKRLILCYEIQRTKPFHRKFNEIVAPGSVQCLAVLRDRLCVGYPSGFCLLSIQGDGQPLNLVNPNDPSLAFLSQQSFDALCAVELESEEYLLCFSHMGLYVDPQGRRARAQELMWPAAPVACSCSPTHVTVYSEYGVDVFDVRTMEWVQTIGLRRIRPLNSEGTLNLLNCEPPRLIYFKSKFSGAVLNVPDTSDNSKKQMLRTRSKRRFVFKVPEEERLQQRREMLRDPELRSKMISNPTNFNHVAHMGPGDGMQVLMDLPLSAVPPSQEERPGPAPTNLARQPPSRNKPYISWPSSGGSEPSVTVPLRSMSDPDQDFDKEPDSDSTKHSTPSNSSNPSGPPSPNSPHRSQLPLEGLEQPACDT
UniProt Q8N4C8, sequence (whole entry, looked up): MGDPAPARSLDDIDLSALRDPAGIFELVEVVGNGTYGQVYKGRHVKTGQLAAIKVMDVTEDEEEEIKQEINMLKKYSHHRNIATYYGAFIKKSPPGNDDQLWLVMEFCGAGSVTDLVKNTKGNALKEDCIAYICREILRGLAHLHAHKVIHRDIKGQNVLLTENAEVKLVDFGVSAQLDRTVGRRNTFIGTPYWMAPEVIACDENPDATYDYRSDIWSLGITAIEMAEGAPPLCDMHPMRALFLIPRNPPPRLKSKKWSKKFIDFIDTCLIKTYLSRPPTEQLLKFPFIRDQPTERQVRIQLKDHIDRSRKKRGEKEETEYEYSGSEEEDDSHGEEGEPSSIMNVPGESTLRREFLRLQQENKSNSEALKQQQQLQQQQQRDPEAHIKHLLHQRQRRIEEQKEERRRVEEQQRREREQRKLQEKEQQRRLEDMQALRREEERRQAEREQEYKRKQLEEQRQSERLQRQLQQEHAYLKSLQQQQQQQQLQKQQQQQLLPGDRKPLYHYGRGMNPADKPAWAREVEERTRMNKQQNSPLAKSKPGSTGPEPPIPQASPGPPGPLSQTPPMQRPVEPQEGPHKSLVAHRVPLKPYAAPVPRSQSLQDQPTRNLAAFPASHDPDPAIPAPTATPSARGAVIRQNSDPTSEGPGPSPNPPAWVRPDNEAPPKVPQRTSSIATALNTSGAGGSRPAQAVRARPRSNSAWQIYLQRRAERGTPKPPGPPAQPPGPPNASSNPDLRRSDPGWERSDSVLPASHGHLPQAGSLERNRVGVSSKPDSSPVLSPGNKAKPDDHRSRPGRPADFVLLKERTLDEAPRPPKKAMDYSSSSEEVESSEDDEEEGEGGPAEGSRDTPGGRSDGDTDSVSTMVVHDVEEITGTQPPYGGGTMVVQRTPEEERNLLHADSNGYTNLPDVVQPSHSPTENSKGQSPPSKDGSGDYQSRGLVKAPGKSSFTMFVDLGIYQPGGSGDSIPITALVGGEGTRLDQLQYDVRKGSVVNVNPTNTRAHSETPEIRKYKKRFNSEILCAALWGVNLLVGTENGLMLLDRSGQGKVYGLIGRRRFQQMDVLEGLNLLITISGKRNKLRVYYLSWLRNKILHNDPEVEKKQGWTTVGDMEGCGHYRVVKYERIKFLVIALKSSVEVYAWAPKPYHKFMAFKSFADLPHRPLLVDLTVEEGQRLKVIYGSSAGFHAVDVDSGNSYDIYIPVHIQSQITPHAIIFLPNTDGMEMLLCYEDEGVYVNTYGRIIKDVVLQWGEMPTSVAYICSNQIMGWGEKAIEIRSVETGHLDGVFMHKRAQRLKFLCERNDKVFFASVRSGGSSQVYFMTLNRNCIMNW
UniProt P31751, sequence (whole entry, looked up): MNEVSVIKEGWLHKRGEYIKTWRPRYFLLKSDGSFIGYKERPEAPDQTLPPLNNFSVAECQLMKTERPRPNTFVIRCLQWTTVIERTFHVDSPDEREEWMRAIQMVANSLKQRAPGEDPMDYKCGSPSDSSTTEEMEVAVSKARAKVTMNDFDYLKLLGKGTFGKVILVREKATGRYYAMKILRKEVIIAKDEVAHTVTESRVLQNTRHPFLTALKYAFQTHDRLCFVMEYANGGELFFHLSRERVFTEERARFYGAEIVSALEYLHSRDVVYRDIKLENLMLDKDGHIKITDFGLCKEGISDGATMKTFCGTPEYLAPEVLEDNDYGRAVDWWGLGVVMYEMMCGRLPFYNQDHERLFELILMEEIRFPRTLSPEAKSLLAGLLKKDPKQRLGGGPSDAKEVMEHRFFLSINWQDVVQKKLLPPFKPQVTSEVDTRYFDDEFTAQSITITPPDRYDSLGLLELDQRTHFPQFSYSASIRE
UniProt P49759, sequence (whole entry, looked up): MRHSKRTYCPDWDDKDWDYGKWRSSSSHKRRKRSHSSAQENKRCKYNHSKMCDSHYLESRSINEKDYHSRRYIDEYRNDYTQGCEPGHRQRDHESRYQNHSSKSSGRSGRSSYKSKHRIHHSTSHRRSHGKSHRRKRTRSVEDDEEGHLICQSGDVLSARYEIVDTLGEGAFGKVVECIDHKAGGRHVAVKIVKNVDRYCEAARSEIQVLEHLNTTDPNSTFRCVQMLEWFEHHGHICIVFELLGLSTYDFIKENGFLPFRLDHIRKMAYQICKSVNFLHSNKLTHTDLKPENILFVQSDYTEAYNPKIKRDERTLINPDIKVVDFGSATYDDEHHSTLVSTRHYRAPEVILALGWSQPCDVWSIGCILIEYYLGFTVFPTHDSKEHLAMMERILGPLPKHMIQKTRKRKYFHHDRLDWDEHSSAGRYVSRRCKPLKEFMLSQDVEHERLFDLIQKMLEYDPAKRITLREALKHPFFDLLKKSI
UniProt P51956, sequence (whole entry, looked up): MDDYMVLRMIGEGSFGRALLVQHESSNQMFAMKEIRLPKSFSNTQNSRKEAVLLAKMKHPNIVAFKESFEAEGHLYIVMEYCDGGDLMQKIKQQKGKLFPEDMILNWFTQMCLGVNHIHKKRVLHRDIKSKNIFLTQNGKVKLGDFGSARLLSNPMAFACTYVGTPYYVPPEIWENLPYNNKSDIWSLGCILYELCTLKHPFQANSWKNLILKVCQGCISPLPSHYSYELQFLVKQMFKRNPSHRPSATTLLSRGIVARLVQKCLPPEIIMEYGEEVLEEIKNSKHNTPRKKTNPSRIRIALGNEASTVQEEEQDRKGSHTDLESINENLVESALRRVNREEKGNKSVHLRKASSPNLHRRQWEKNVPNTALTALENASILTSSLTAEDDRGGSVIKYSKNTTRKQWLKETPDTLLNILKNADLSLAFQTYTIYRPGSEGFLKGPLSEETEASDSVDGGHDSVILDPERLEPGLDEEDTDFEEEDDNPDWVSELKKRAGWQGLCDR
UniProt P07947, sequence (whole entry, looked up): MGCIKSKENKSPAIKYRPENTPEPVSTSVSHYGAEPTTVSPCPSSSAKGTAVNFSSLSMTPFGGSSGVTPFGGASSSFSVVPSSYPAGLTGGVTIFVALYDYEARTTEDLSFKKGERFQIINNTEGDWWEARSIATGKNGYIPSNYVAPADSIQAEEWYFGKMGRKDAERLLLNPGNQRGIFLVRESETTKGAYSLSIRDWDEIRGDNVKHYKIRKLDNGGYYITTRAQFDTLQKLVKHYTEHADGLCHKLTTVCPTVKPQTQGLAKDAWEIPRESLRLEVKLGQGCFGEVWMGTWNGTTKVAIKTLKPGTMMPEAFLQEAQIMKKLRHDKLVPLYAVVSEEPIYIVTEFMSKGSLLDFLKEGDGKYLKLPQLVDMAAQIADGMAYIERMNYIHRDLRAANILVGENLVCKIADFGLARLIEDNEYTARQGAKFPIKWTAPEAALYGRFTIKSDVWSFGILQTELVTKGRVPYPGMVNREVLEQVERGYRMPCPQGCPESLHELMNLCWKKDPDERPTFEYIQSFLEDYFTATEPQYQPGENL

Set 1
Organism: Sarcocystis neurona
Effect on: parasite activity
Concentration: 10 µM
Time: 96 h
Endpoint: activity class
Cc1cc2c(s1)Nc1ccccc1N=C2N1CCN(C)CC1: inactive
CC(N)C12CC3CC(CC(C3)C1)C2 (centres unmarked): inactive
CC(C)(C)NC(=O)[C@@H]1CN(Cc2cccnc2)CCN1C[C@@H](O)C[C@@H](Cc1ccccc1)C(=O)N[C@H]1c2ccccc2C[C@H]1O: inactive
N#Cc1ccc(C(c2ccc(C#N)cc2)n2cncn2)cc1: inactive

Set 2
SMILES: CC(C)n1cnc(-c2ccc(F)cc2)c1-c1ncc(C(=O)Nc2ccc(N3CCN(C)CC3)cc2)[nH]1
Method: phase 2a clinical trial
Host: patients with idiopathic pulmonary fibrosis
Endpoint: patients with treatment-emergent adverse events
refers to: metabolism and nutrition disorders (SOC); 30 mg once daily, Grade 3: 0%
refers to: benign prostatic hyperplasia; 60 mg once daily, Grade 5, maximum intensity: 0%
refers to: electrocardiogram T wave abnormal; 30 mg once daily, Grade 4: 0%

Set 3
Compound: c1ccc(-c2n[nH]c3c2oc2ccccc23)cc1
Effect on: enzyme activity
Mode: inhibitor
Concentration: 0.5 µM
Relative to: control
Endpoint: remaining activity
CLK4 (Homo sapiens, UniProt Q9HAZ1): 98.9%
KDR (Homo sapiens, UniProt P35968): 107%
PLK3 (Homo sapiens, UniProt Q9H4B4): 99.2%
GRK4 (Homo sapiens, UniProt P32298): 110%
MAP2K1 (Homo sapiens, UniProt Q02750): 96.4%
NEK3 (Homo sapiens, UniProt P51956): 98.9%
PAK3 (Homo sapiens, UniProt O75914): 89.2%
CDC42BPB (Homo sapiens, UniProt Q9Y5S2): 99%
MINK1 (Homo sapiens, UniProt Q8N4C8): 81.4%
AKT2 (Homo sapiens, UniProt P31751): 112%
PRKG2 (Homo sapiens, UniProt Q13237): 109%
MARK2 (Homo sapiens, UniProt Q7KZI7): 92.9%
MAPK14 (Homo sapiens, UniProt Q16539): 102%

Set 4
Compound: Cn1nc(C(F)(F)F)cc1-c1cnc(N2CCc3cc(S(=O)(=O)Nc4c(F)cc(Cl)cc4F)cc(N4CCCC4=O)c32)nc1
Effect on: cell-free assay
Method: competition with immobilised ligand
Concentration: 1 µM
Endpoint: remaining binding
CLK1 (Homo sapiens, UniProt P49759): 87%
ERBB3 (Homo sapiens, UniProt P21860): 93%
YES1 (Homo sapiens, UniProt P07947): 99%
RIPK1 (Homo sapiens, UniProt Q13546): 100%
PAK2 (Homo sapiens, UniProt Q13177): 100%
TNIK (Homo sapiens, UniProt Q9UKE5): 100%

For quick reference, copied from above (set 1):
CC(C)(C)NC(=O)[C@@H]1CN(Cc2cccnc2)CCN1C[C@@H](O)C[C@@H](Cc1ccccc1)C(=O)N[C@H]1c2ccccc2C[C@H]1O: inactive
N#Cc1ccc(C(c2ccc(C#N)cc2)n2cncn2)cc1: inactive
CC(N)C12CC3CC(CC(C3)C1)C2 (centres unmarked): inactive
